Published values gathered from unrelated publications.
Numbered parts are unrelated; each lists some results of a single study. “And” joins repeats or separate records; there may be more than shown. Numbers after ± are the reported error.
UniProt Q96RR4, sequence (whole entry, looked up): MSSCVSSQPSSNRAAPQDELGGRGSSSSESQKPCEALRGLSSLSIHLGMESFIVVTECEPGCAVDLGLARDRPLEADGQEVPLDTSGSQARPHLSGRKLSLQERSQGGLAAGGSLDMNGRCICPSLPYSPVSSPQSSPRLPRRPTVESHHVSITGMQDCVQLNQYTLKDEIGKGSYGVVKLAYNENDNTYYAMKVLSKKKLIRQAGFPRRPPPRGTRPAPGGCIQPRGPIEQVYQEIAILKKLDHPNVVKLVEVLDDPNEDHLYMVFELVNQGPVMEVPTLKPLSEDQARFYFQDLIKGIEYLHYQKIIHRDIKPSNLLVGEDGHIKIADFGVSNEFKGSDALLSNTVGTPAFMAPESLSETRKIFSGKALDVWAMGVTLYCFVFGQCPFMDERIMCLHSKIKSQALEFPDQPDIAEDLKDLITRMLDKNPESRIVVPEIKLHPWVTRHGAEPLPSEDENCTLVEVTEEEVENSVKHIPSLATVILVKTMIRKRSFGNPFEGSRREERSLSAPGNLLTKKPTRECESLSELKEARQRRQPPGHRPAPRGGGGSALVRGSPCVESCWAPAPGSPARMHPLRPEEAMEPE
UniProt Q9NYY3, sequence (whole entry, looked up): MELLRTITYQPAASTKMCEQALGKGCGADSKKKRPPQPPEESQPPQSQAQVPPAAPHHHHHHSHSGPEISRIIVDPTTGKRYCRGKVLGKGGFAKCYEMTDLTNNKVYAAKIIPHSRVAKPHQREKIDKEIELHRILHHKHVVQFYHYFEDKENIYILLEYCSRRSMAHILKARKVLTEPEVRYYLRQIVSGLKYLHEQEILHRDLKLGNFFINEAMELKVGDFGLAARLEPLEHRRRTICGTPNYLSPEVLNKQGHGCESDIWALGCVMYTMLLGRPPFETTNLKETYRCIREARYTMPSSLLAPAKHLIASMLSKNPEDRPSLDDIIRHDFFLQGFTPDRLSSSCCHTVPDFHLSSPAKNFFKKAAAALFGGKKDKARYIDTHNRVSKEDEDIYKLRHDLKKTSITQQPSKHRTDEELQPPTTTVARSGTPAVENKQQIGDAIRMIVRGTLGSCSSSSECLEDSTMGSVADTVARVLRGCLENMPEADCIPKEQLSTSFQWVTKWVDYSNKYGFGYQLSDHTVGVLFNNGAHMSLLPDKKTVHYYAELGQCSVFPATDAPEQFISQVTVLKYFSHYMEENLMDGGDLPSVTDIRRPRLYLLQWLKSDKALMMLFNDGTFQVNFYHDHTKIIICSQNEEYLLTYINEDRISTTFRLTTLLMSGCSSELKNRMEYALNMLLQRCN

Study 1
Structure (SMILES): NC/C(=C\F)COc1ccc(Cn2c(=S)[nH]c(=O)c3[nH]cnc32)cc1
Observed: enzyme activity
Mode: inhibitor
Method: fluorescence
AOC3: Amine oxidase [copper-containing] 3 (AOC3, Homo sapiens, UniProt Q16853)
UniProt Q16853, sequence (whole entry, looked up): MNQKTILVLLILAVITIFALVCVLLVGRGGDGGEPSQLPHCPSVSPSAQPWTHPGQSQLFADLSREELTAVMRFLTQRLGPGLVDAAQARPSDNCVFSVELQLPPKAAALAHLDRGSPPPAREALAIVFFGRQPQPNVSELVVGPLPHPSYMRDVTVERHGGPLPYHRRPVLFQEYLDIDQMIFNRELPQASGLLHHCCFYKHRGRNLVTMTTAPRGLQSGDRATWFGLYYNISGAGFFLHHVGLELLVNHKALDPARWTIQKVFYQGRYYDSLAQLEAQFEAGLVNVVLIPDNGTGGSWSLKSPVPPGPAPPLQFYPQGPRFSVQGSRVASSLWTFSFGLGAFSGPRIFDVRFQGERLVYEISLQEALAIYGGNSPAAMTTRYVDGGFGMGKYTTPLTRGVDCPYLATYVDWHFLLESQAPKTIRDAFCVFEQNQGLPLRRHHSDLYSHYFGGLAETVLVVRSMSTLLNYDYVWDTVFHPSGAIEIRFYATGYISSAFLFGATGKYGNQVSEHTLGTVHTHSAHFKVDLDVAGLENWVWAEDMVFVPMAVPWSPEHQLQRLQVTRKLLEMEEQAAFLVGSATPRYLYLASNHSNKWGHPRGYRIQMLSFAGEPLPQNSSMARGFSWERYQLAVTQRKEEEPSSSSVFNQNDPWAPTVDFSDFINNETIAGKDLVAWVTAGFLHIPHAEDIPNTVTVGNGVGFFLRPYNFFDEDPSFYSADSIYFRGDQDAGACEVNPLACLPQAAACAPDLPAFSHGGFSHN
MPO: Myeloperoxidase (MPO, Homo sapiens, UniProt P05164)
UniProt P05164, sequence (whole entry, looked up): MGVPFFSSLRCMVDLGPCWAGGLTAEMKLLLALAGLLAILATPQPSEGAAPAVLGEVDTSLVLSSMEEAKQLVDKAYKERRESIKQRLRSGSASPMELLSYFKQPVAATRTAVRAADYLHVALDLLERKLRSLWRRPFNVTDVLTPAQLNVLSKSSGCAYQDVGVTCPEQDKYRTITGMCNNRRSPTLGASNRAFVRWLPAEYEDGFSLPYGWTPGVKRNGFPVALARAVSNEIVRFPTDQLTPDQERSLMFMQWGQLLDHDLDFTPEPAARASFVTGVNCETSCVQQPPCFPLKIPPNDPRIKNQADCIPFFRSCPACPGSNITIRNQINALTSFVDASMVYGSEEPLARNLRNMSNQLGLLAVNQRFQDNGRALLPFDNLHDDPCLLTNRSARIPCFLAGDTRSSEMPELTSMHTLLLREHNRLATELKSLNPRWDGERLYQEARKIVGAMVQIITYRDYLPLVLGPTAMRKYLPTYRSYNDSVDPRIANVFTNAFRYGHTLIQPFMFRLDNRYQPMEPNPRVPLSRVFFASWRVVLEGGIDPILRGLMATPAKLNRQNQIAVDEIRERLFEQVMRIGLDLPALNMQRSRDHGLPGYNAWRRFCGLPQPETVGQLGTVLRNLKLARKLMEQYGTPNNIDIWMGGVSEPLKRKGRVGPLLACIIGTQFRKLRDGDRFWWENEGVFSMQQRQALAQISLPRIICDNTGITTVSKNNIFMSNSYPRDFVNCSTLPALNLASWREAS
target	tested at	inhibition [%]
AOC3	3.333 µM	100
MPO	1.5 nM	-3.07
MPO	10 µM	18
AOC3	1.111 µM	100
AOC3	30 µM	99.7
AOC3	1 µM	101
AOC3	0.3704 µM	99.9
AOC3	0.3333 µM	102

Study 2
Compound: Cc1ncsc1-c1ccc(C(CO)NC(=O)C2CC(O)CN2C(=O)C(C(C)C)n2cc(-c3ccc(COc4c(-c5c(C)c(F)cc6[nH]ncc56)c(C5CC5)cc5c(N6CC7CC6CN7)nc(OC6CCOCC6)nc45)cc3)nn2)cc1 (stereo not drawn)
cells	host	route	dose	time	tumour volume
GP5d xenograft	mouse		30 mg/kg once weekly	day 4	166 mm3 and 98.4 mm3 and 133 mm3 and 136 mm3 and 160 mm3
HPAC xenograft	mouse		30 mg/kg twice weekly	day 7	197 mm3 and 196 mm3 and 185 mm3 and 247 mm3 and 269 mm3
	mouse, lung LXFA sample A PDX		10 mg/kg twice weekly	day 22	138 mm3 and 434 mm3 and 223 mm3 and 312 mm3 and 105 mm3 and 318 mm3 and 111 mm3 and 164 mm3
HPAC xenograft	mouse		30 mg/kg once weekly	day 14	413 mm3 and 376 mm3 and 314 mm3 and 344 mm3 and 331 mm3
GP2d xenograft	mouse		30 mg/kg twice weekly	day 7	177 mm3 and 129 mm3 and 139 mm3 and 100 mm3 and 155 mm3
	mouse, ASPC1 xenograft		30 mg/kg twice weekly	day 0	284 mm3 and 178 mm3 and 189 mm3 and 169 mm3 and 212 mm3
GP2d xenograft	mouse		30 mg/kg twice weekly	day 11	185 mm3 and 134 mm3 and 196 mm3 and 168 mm3 and 156 mm3
	mouse, lung LXFA sample A PDX		30 mg/kg twice weekly	day 6	178 mm3 and 96.8 mm3 and 74 mm3 and 148 mm3 and 205 mm3 and 15 mm3 and 93.2 mm3 and 113 mm3
	mouse, PK-59 xenograft		0.3 mg/kg	day 4	485 mm3 and 607 mm3 and 521 mm3 and 484 mm3 and 494 mm3
	mouse, HT-29 xenograft	sc	30 mg/kg once daily	day 15	756 mm3 and 1030 mm3 and 979 mm3 and 806 mm3 and 618 mm3

Study 3
Structure (SMILES): C[C@@H]1CN(c2ccc(-c3cc(C(=O)NCCOCCOCCOCCOCCNC(=O)/C=C/c4[nH]cc(C(=O)N[C@@H](CC(N)=O)c5ccc(F)c(Cl)c5)c4-c4ccc(Cl)cc4F)ccc3F)cc2NC(=O)c2c[nH]c(=O)cc2C(F)(F)F)C[C@H](C)N1C
Observed: thermal unfolding
Method: differential scanning fluorimetry
Tested at: 5.5 µM
Reading: higher = more unfolded
DCAF1: DDB1- and CUL4-associated factor 1 (DCAF1, Homo sapiens, UniProt Q9Y4B6)
UniProt Q9Y4B6, sequence (whole entry, looked up): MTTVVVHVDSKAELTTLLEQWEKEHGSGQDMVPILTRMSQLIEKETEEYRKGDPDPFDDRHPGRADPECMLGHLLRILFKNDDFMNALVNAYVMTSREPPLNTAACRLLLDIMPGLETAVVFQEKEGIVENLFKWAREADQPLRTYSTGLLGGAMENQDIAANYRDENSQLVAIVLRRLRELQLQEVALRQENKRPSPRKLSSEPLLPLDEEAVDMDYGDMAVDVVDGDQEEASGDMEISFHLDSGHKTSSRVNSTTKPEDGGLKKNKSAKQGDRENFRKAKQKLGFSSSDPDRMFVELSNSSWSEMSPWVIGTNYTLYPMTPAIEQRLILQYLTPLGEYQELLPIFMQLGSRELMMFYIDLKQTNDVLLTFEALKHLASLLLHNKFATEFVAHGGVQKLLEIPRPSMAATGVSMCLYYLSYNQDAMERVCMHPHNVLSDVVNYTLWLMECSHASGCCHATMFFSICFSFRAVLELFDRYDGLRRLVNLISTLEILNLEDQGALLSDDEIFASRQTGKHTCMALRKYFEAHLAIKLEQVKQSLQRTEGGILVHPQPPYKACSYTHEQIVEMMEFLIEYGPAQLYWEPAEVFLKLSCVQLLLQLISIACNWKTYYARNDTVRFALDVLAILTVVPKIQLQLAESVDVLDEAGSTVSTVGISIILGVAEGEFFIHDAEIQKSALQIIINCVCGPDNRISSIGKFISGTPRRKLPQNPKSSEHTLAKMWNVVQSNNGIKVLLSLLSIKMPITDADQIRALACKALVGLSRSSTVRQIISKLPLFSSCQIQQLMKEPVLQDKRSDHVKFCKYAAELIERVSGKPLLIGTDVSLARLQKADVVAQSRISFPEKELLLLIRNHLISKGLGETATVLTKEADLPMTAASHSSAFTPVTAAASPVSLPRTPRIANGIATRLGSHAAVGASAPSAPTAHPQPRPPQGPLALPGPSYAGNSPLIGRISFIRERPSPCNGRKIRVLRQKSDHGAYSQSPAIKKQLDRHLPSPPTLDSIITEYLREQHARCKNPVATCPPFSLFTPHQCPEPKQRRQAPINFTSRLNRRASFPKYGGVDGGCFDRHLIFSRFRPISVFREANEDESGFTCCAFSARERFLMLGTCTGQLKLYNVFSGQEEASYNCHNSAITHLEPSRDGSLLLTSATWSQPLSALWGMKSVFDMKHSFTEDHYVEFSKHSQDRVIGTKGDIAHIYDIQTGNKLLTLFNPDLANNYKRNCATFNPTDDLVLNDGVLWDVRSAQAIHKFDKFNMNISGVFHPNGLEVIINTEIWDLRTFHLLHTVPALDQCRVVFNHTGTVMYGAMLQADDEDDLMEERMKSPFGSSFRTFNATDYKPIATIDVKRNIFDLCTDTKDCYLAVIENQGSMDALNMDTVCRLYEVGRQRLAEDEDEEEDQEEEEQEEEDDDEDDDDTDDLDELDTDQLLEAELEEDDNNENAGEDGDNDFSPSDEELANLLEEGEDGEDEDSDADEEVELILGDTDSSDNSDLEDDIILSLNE
WDR5: WD repeat-containing protein 5 (WDR5, Homo sapiens, UniProt P61964)
target	temperature	SYPRO Orange fluorescence [a.u.]
DCAF1	41.2 °C	11900
WDR5	53.41 °C	16800
WDR5	31.2 °C	12800
WDR5	65.41 °C	14000
WDR5	78.41 °C	35600
WDR5	29.2 °C	12700
WDR5	35.8 °C	13400
DCAF1	92.41 °C	32300
WDR5	84.21 °C	51000
WDR5	70.01 °C	16100
DCAF1	92.21 °C	32600

Study 4
SMILES: COc1cc(-c2nc3ccc(C(=O)NCCCN(C)C)cc3n2C2CCC2)cc(OC)c1OC
target	observed	method	tested at	relative to	remaining binding
MAP4K4 (Homo sapiens, UniProt O95819)	binding	competition with immobilised ligand	1 µM		100%
DCLK2 (Homo sapiens, UniProt Q8N568)	binding	competition with immobilised ligand	1 µM		83%
PIK3CA (Homo sapiens, UniProt P42336, E545K)	binding	competition with immobilised ligand	1 µM		99%
ALK (Homo sapiens, UniProt Q9UM73, L1196M)	binding	competition with immobilised ligand	1 µM		100%
LCK (Homo sapiens, UniProt P06239)	binding	competition with immobilised ligand	1 µM		6.4%
CAMKK2 (Homo sapiens, UniProt Q96RR4)	binding	competition with immobilised ligand	1 µM		82%
ERBB2 (Homo sapiens, UniProt P04626)	binding	competition with immobilised ligand	1 µM		100%
LATS2 (Homo sapiens, UniProt Q9NRM7)	binding	competition with immobilised ligand	1 µM		50%
PHKG2 (Homo sapiens, UniProt P15735)	binding	competition with immobilised ligand	1 µM		89%
FLT3 ITD F691L human		KINOMEscan	1000 nM	DMSO control	73%
MAK (Homo sapiens, UniProt P20794)	binding	competition with immobilised ligand	1 µM		100%
MAP3K13 (Homo sapiens, UniProt O43283)	binding	competition with immobilised ligand	1 µM		96%

Study 5
Compound: CC[C@@]1(c2cccc(-c3c(F)cncc3OC)c2)C2=C(Nc3n[nH]cc31)[C@H](F)C(C)(C)CC2=O (single isomer, unassigned)
Tested at: 1 µM
target	observed	method	relative to	remaining binding [%]
TIE1 (Homo sapiens, UniProt P35590)	kinase binding	KINOMEscan	DMSO control	80
MAPK7 (Homo sapiens, UniProt Q13164)	binding	competition with immobilised ligand		100
FLT3 (Homo sapiens, UniProt P36888, R834Q)	binding	competition with immobilised ligand		89
EPHB4 (Homo sapiens, UniProt P54760)	kinase binding	KINOMEscan	DMSO control	100
SRPK1 (Homo sapiens, UniProt Q96SB4)	binding	competition with immobilised ligand		81
PLK2 (Homo sapiens, UniProt Q9NYY3)	kinase binding	KINOMEscan	DMSO control	60
Tyrosine-protein kinase ABL1, non-phosphorylated (ABL1, Homo sapiens, UniProt P00519, F317I)	binding	competition with immobilised ligand		81
NUAK1 (Homo sapiens, UniProt O60285)	binding	competition with immobilised ligand		100
CAMK1 (Homo sapiens, UniProt Q14012)	binding	competition with immobilised ligand		54
PDPK1 (Homo sapiens, UniProt O15530)	kinase binding	KINOMEscan	DMSO control	77
EGFR (Homo sapiens, UniProt P00533, del752-759)	kinase binding	KINOMEscan	DMSO control	92
PRKCE (Homo sapiens, UniProt Q02156)	binding	competition with immobilised ligand		69
SGK1 (Homo sapiens, UniProt O00141)	kinase binding	KINOMEscan	DMSO control	90
MARK4 (Homo sapiens, UniProt Q96L34)	kinase binding	KINOMEscan	DMSO control	89
PIM1 (Homo sapiens, UniProt P11309)	kinase binding	KINOMEscan	DMSO control	100
CDK14 (Homo sapiens, UniProt O94921)	kinase binding	KINOMEscan	DMSO control	100
Tyrosine-protein kinase JAK1, JH1 (JAK1, Homo sapiens, UniProt P23458)	binding	competition with immobilised ligand		100
PRKX (Homo sapiens, UniProt P51817)	binding	competition with immobilised ligand		96

Study 6
SMILES: Cc1ccc(O)c(C)c1-c1cnc2[nH]c(-c3cnc(N4CCC(CN5CCC(c6ccc(NC7CCC(=O)NC7=O)cc6F)CC5)CC4)nc3)cc2c1C#N (stereo not drawn)
Target: Membrane-associated tyrosine- and threonine-specific cdc2-inhibitory kinase (PKMYT1, Homo sapiens, UniProt Q99640)
Construct (Q99640 1-499): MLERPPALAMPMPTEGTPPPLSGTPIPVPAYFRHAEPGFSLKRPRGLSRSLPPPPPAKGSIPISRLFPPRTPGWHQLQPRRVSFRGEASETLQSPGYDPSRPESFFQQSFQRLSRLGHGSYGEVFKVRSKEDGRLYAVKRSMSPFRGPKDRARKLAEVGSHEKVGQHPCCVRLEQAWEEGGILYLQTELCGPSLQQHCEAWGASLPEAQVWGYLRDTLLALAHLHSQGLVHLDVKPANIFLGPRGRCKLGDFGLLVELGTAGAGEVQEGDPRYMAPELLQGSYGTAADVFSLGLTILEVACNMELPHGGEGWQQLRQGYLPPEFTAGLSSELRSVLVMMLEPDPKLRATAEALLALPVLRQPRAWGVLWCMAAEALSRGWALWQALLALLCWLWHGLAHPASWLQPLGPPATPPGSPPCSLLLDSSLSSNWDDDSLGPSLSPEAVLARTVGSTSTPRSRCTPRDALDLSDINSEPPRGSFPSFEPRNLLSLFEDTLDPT
observed	mode	method	tested at	inhibition [%]
cell-free assay	inhibitor	TR-FRET	1.37 nM	13
cell-free assay	inhibitor	TR-FRET	4.12 nM	37.9
cell-free assay	inhibitor	TR-FRET	0.3333 µM	99
			0.03704 µM	90.5
cell-free assay	inhibitor	TR-FRET	51 pM	-4.59
			0.000152 µM	-7.85
cell-free assay	inhibitor	TR-FRET	37.04 nM	88.4
			0.00412 µM	38.5
			0.00137 µM	12
			1 µM	97.9

Study 7
Structure (SMILES): CNc1ncc2cc(-c3cc(OC)cc(OC)c3Cl)c(=O)n(CCc3ccc(NC(=O)C(C#N)=CC(C)(C)N4CCOCC4)cc3)c2n1
Observed: kinase activity
Tested at: 0.1 µM
target	inhibition
TSSK1B (Homo sapiens, UniProt Q9BXA7)	-1%
TSSK2 (Homo sapiens, UniProt Q96PF2)	-2%
SYK (Homo sapiens, UniProt P43405)	2%

Study 8
Compound: CCN1/C(=C/C=C2\CCCC(/C=C/C3=[N+](CC)c4ccccc4C3(C)C)=C2NCCCCCCCCN2CCC(Nc3nc4ccccc4n3Cc3ccc(F)cc3)CC2)C(C)(C)c2ccccc21
Cell line: U-87 MG
Tested at: concentration not given
Relative to: DMSO
refers to	log2 fold change
APOBEC3B mRNA	-2.05
CAD mRNA	-0.835
GABRA3 mRNA	-1.93
MXRA8 mRNA	-2.09
CKAP2 mRNA	-1.26
C9orf72 mRNA	1.99
CBX4 mRNA	1.01
NDP mRNA	-3.67
GJA1 mRNA	-2.36
POLQ mRNA	-1.97
EFL1 mRNA	1.26
UQCC3 mRNA	-0.816
SLC3A2 mRNA	1.44
HEG1 mRNA	-2.82
PRR7 mRNA	-1.38
ADNP2 mRNA	0.837

Study 9
Structure (SMILES): COCCCCCCC1CC2C(CCC3(C)C(O)CCC23)c2ccc(O)cc21 (stereo not drawn)
cell line	method	refers to	tested at	relative to	mRNA level ratio
A549	DNA microarray	CCL11	10 µM	untreated cells	1
PANC-1	microarray	CCL8	10 µM	untreated	32.6
SK-OV-3	microarray	ISG20L1	50 µM	untreated	2.61
A549	DNA microarray	GZMK	10 µM	untreated cells	15.1
PANC-1	microarray	ACTA2	50 µM	untreated	0.779
PANC-1	microarray	ADAMTS14	10 µM	untreated	0.757
A549	microarray	ADAMTS14	50 µM	untreated	1.14
A549	DNA microarray	ACTB	10 µM	untreated cells	0.978
SK-OV-3	DNA microarray	CCL22	10 µM	untreated cells	1
A549	DNA microarray	CCL22	50 µM	untreated cells	1

Mixed results
Target: Sodium-dependent neutral amino acid transporter B(0)AT1 (SLC6A19, Homo sapiens, UniProt Q695T7)
UniProt Q695T7, sequence (whole entry, looked up): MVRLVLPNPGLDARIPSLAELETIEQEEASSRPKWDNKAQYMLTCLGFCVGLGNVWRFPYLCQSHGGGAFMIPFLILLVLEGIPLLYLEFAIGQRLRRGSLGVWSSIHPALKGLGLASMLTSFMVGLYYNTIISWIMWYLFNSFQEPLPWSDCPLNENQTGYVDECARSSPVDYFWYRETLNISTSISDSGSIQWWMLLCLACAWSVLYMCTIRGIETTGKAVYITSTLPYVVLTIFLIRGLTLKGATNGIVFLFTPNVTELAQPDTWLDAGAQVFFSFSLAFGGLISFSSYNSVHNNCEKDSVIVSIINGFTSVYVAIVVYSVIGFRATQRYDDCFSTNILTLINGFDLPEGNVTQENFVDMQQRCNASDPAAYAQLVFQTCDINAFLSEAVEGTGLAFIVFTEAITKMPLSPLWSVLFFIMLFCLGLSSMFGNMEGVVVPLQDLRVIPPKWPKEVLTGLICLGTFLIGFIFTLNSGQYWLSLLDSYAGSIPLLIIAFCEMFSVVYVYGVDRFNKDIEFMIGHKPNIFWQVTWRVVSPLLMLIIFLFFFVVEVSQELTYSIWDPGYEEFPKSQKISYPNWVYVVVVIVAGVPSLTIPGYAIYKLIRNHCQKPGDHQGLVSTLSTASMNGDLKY
Mode: inhibitor
Structure (SMILES)	method	cells	notes	with	IC50
CC(C)NC(=O)COc1ccc(I)cc1	L-[14C]leucine uptake	CHO-BC cells	second repeat		4200 nM
CCNC(=O)COc1ccc(I)c(C)c1	FLIPR membrane potential	CHO-BC		1.5 mM L-leucine	46 ± 6 nM
Cc1cc(NCC(=O)NC(C)C)cc(C)c1Br	FLIPR membrane potential	CHO-BC		1.5 mM L-leucine	360 ± 20 nM
CC(C)NC(=O)COc1ccc(Br)cc1	L-[14C]leucine uptake	CHO-BC cells	second repeat		6590 nM

Some of these lines once more (study 4):
target	observed	method	tested at	relative to	remaining binding
MAP4K4 (Homo sapiens, UniProt O95819)	binding	competition with immobilised ligand	1 µM		100%
DCLK2 (Homo sapiens, UniProt Q8N568)	binding	competition with immobilised ligand	1 µM		83%
PIK3CA (Homo sapiens, UniProt P42336, E545K)	binding	competition with immobilised ligand	1 µM		99%
ALK (Homo sapiens, UniProt Q9UM73, L1196M)	binding	competition with immobilised ligand	1 µM		100%
LCK (Homo sapiens, UniProt P06239)	binding	competition with immobilised ligand	1 µM		6.4%
CAMKK2 (Homo sapiens, UniProt Q96RR4)	binding	competition with immobilised ligand	1 µM		82%
ERBB2 (Homo sapiens, UniProt P04626)	binding	competition with immobilised ligand	1 µM		100%
LATS2 (Homo sapiens, UniProt Q9NRM7)	binding	competition with immobilised ligand	1 µM		50%
PHKG2 (Homo sapiens, UniProt P15735)	binding	competition with immobilised ligand	1 µM		89%
FLT3 ITD F691L human		KINOMEscan	1000 nM	DMSO control	73%
MAK (Homo sapiens, UniProt P20794)	binding	competition with immobilised ligand	1 µM		100%
MAP3K13 (Homo sapiens, UniProt O43283)	binding	competition with immobilised ligand	1 µM		96%
